Measurements gathered from unrelated publications.
Lines come from different studies, so protocols differ. Converted amounts (≈) assume the structure as drawn.

O=[N+]([O-])c1cc2c(ccc3cc(Br)ccc32)o1
MIC90 (Salmonella enterica; REMA): > 32 µg/mL

[H]/N=C(/N)N[C@H]1[C@H](O)[C@@H](O)[C@H](O[C@@H]2O[C@@H](C)[C@](O)(C=O)[C@H]2O[C@@H]2O[C@@H](CO)[C@H](O)[C@@H](O)[C@@H]2NC)[C@@H](N/C(N)=N\[H])[C@@H]1O
MIC (Salmonella enterica; 20 h, pH 5.5): > 4100 µg/mL

CCCCN1C[C@H](O)[C@@H](O)[C@H](O)[C@H]1CO
maximum inhibition (human coronavirus OC43; virus-induced cell killing; MRC-5; screen): 22.4%

COc1ccc2c(ccc3oc([N+](=O)[O-])c(OC)c32)c1
MIC90 (Salmonella enterica; REMA): > 32 µg/mL

CCCCCCCCCC(=O)N[C@@H](Cc1c[nH]c2ccccc12)C(=O)N[C@H](CC(N)=O)C(=O)N[C@@H](CC(=O)O)C(=O)N[C@@H]1C(=O)NCC(=O)N[C@@H](CCCN)C(=O)N[C@@H](CC(=O)O)C(=O)N[C@H](C)C(=O)N[C@@H](CC(=O)O)C(=O)NCC(=O)N[C@H](CO)C(=O)N[C@@H]([C@H](C)CC(=O)O)C(=O)N[C@@H](CC(=O)c2ccccc2N)C(=O)O[C@@H]1C
MIC (Salmonella enterica; broth microdilution; ATCC 700720; 24 h): > 50 µM

CN(C)[C@@H]1C(O)=C(C(N)=O)C(=O)[C@@]2(O)C(O)=C3C(=O)c4c(O)cccc4[C@@](C)(O)[C@H]3C[C@@H]12
MIC (Salmonella enterica; 20 h, pH 7.2): 2 µg/mL

COC(=O)c1ccc2c(ccc3oc([N+](=O)[O-])cc32)c1
MIC90 (Salmonella enterica; REMA): > 32 µg/mL

CC[C@H](C)[C@H](NC(=O)[C@H](Cc1ccccc1)NC(=O)[C@@H](NC(=O)[C@H](CO)NC(=O)[C@@H](N)CCCNC(=N)N)[C@@H](C)CC)C(=O)N[C@@H](CCCCN)C(=O)N[C@@H](Cc1ccc(O)cc1)C(=O)N[C@@H](CCCCN)C(=O)N[C@@H](CO)C(=O)N[C@@H](CCCCN)C(=O)N1CCC[C@H]1C(=O)N[C@@H](Cc1ccccc1)C(=O)N[C@@H](CS)C(=O)N[C@@H](CCC(=O)O)C(=O)N[C@@H](CCCCN)C(=O)N[C@@H](CC(C)C)C(=O)N[C@@H](CC(C)C)C(=O)N[C@@H](CO)C(=O)N[C@@H](Cc1c[nH]c2ccccc12)C(=O)N[C@H](C(=O)N[C@@H](CCCCN)C(=O)N[C@@H](CO)C(=O)O)C(C)C
MBC (Salmonella enterica): 128 µg/mL (≈ 47.6 µM)

CC[C@H](C)CCCCC(=O)N[C@@H](CCN)C(=O)N[C@H](C(=O)N[C@@H](CCN)C(=O)N[C@H]1CCNC(=O)[C@H]([C@@H](C)O)NC(=O)[C@H](CCN)NC(=O)[C@H](CCN)NC(=O)[C@H](CC(C)C)NC(=O)[C@@H](Cc2ccccc2)NC(=O)[C@H](CCN)NC1=O)[C@@H](C)O
MIC (Salmonella enterica; broth microdilution; ATCC 700720; 24 h): < 1 µM

CC(=O)Nc1nc(C)c(-c2ccc(Cl)c(S(=O)(=O)NCCO)c2)s1
maximum inhibition (human coronavirus OC43; virus-induced cell killing; MRC-5; maximum over 10 doses): 0%

CC[C@H](C)[C@H](NC(=O)[C@H](CC(N)=O)NC(=O)[C@H](Cc1ccccc1)NC(=O)[C@H](CCCNC(=N)N)NC(=O)[C@H](CCCNC(=N)N)NC(=O)[C@@H](N)CCCCN)C(=O)N[C@@H](CCCCN)C(=O)N[C@@H](CC(C)C)C(=O)N[C@@H](Cc1c[nH]c2ccccc12)C(=O)N[C@@H](CCCCN)C(=O)N[C@H](C(=O)N[C@@H](Cc1ccccc1)C(=O)O)[C@@H](C)O
MBC (Salmonella enterica): 128 µg/mL (≈ 78.2 µM)
